Published values collected from several papers.
A part holds a random share of what one study measured. Substitutions count along the parent as printed.

Set 1 — target: CCND2, cyclin fold, Cln2 fusion (human); technique: yeast growth competition, sequencing; matrix: yeast; notes: weak parent motif; baseline: not given; reading: higher = stronger binding
Parent: DBF4B docking peptide (human); LGYLYLLLTQSLW
| Change | normalised enrichment score |
| --- | --- |
| L8A | -0.0416 |
| S11A | 0.123 |
| Y5A | -0.301 |
| Q10A | 0.246 |
| L12A | -0.562 |
| L4A | -0.155 |
| G2A | -0.409 |

Set 2 — target: BATF, bZIP domain (human); technique: DHFR protein complementation; matrix: yeast; baseline: wild-type JUN-FOS pair; reading: higher = stronger binding
Notes: single substitutions, most at no-binding floor
Parent: JUN, bZIP domain (human); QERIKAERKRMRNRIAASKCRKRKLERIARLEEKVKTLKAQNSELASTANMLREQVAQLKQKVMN; partner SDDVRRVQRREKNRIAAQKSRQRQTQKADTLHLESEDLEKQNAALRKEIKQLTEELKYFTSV
| Change | binding fitness [natural log] |
| --- | --- |
| K34V | -0.0959 |
| M51F | -0.0155 |
| S43T | 0.0789 |
| L31V | -0.152 |
| L45A | -0.939 |
| L52H | -1.08 |
| V56L | -0.0482 |
| E33I | -0.212 |
| A46K | 0.0997 |
| L38M | -0.202 |
| K39T | -0.0943 |
| A49W | -0.382 |
| Q55H | -0.0239 |
| S47W | -0.0584 |
| K39E | -0.255 |
| S43I | 0.0242 |
| S47M | -0.0227 |
| K36C | 0.0907 |
| E32D | 0.0014 |
| V56Y | -0.675 |

Set 3 — technique: universal PBM; molecule type: double-stranded DNA, one strand shown; matrix: in vitro; tested at: not given; reading: higher = stronger binding
Target: Sal-like protein 4, full length isoform B (SALL4, Homo sapiens, UniProt Q9UJQ4-2, residues 1-616)
Notes: 8-mer, flanks averaged, mean of replicates
Target sequence (chain): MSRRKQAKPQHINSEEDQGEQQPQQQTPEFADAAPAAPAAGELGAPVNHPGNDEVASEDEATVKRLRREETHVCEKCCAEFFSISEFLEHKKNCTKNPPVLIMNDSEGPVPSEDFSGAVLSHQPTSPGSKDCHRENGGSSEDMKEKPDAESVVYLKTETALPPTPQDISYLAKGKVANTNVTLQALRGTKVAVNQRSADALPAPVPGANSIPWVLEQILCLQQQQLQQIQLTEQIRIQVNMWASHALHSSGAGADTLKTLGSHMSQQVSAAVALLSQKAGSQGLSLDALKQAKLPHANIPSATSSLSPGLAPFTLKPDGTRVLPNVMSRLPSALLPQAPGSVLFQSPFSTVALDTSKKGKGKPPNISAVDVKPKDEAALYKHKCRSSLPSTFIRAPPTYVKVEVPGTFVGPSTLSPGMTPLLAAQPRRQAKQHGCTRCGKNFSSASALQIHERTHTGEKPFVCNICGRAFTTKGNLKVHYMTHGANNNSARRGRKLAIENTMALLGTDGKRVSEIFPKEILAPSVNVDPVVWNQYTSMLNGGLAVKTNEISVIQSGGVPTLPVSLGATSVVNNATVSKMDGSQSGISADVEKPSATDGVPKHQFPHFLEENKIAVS
| Strand | E-score |
| --- | --- |
| ACCGCCAG | -0.27 |
| ATAGGCTC | 0.00122 |
| ACACGGAA | 0.00235 |
| CACAATTC | 0.172 |
| ACGGATAG | -0.0982 |
| CGTGATGA | 0.0266 |
| CAATTACA | 0.273 |
| CAGCCTCA | -0.193 |
| CCAGAACG | -0.0752 |
| CCTGACCA | 0.133 |
| CAACACAG | -0.188 |
| ACATTATG | 0.33 |
| CAGACCCC | -0.274 |
| CAGGTCTA | 0.113 |
| GGCATAAA | 0.182 |
| TTATAAAA | 0.432 |
| AGGGGTAG | -0.139 |
| AGTGTGAG | -0.0179 |
| GACTGGAC | -0.255 |
| GCCCGCAC | -0.265 |
| TACATAGA | 0.272 |
| AAAACTCA | 0.151 |
| ATCTTCGA | 0.145 |
| ACCTCGCA | -0.114 |
| ACCAAACG | -0.115 |

Set 4 — target: CRIPT, C-terminal peptide; technique: DHFR complementation, deep sequencing; matrix: yeast; baseline: wild type; reading: higher = weaker binding
Notes: single substitutions, model-inferred values
Parent: ERBIN, PDZ domain 1 (human); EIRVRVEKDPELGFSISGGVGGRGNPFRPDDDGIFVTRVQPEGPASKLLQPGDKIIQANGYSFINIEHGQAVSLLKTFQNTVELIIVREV; partner TKNYKQTSV
| Change | binding free energy change [kcal/mol] |
| --- | --- |
| V72D | 1.56 |
| G13L | 0.898 |
| G24S | 0.883 |
| S15L | 0.885 |
| G18D | 1.52 |
| D53Q | 0.374 |
| D53G | 0.819 |
| K76E | 1.02 |
| I66H | 0.336 |
| G18L | 1.05 |
| G43S | 0.651 |
| Q79A | -0.0114 |
| T37N | 0.799 |
| K54V | 0.669 |
| N59Y | 0.634 |
| R28P | 1.33 |
| Q70W | 0.104 |
| S73F | -0.0349 |
| S73D | -0.00852 |
| E1G | 0.128 |
| D9I | 1.08 |
| V36I | 0.0631 |

Set 5 — technique: protein-binding microarray; molecule type: double-stranded DNA, one strand shown; matrix: in vitro; tested at: 940 nM top; notes: 60-bp whole probe; together with: salmon DNA 0.4 mg/ml; baseline: random background probes; reading: higher = stronger binding; constant ends, left off below: GCCTAGCAC … GTCTTGATTCGCTTGACGCTGCTG
Target: Interferon regulatory factor 5, full length, phosphomimetic (IRF5, Homo sapiens, UniProt Q13568-2, residues 1-514, S451D/S453D/S456D/S462D)
| Strand | fitted relative affinity [z-score] |
| --- | --- |
| GACGATATCAGTTTCGAGAGGTGCTAG | 3.53 |
| GACGGACTGAGGACTGGGGACGTGCTA | -0.619 |
| CTCATTCTCTGTTTATGTCTGTGCTAG | 3.38 |
| GACGATCTCAGACTGGAGGCGTGCTAG | -0.534 |
| TCAGGACTGGGACTGGGTTAGTGCTAG | -0.565 |
| TCATGCTTAGTATTTTTTACTGTGCTA | 0.296 |
| TCATTTTCCTCTGTCATACTGTGCTAG | 1.37 |
| TCATGTCTCCCCCATCTTACTGTGCTA | 0.964 |
| GACGACTTCGGGACTGGAGACGTGCTA | -0.291 |
| GACGGTTTCGGGTTTCGGGGCGTGCTA | 9.15 |
| GACGGTTCCCGTTTCGGGACGTGCTAG | 1.47 |
| TTAAGTTTCGGGTATCGGTTAGTGCTA | 11.6 |
| TCACCTCTGGGCTGTTTGACTGTGCTA | 0.0192 |
| CTGTTTCCATCTCTCAAAAGGTGCTAG | 2.18 |
| TCAATACTGATTTCCACACTGTGCTAG | 0.55 |
| TTAGGACTGCTTTTCGTTTAGTGCTAG | -0.018 |
| TTAGGACTGGGTTTCCGTTAGTGCTAG | 0.358 |
| TTAGATATCAGTATCTATTAGTGCTAG | 0.849 |
| GACGATATCAGTCTCGAGATGTGCTAG | 0.8 |
| GACGGTATTGGTCTCGGGACGTGCTAG | 1.84 |
| TTAGTTTTCGGGTATCGGTTAGTGCTA | 4.98 |
| TTAGAACTGGGGTCTGGATTAGTGCTA | -0.24 |
| GACGGACTGGATACTGGGGACGTGCTA | -0.5 |
| GAAAATCCCACATTTGATAAAGTGCTA | 0.436 |
| GACGATCTCAGTAACGAGACGTGCTAG | 0.0896 |

Set 6 — technique: DHFR PCA, deep sequencing; matrix: yeast; together with: (+)-ABA 1.4 µM; baseline: wild-type fitted maximum; reading: higher = stronger binding
Target: ABI1, truncated, D143A, DHFR fusion (Arabidopsis thaliana)
Notes: methotrexate growth selection, single substitutions
Parent: PYL1, truncated, DHFR fusion (Arabidopsis thaliana); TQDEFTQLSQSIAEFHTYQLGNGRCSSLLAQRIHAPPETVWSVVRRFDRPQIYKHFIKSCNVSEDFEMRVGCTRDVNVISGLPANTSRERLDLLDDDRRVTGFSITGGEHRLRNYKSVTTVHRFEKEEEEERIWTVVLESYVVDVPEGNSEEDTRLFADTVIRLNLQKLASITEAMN
| Change | relative binding score [%] |
| --- | --- |
| P83G | 34.8 |
| T39A | 55.6 |
| R88H | 72 |
| V76P | 3.6 |
| E38V | 13.4 |
| I105E | -10.8 |
| E130I | 49.7 |
| K126S | 84.4 |
| Y115Q | -7.34 |
| V78I | 69.5 |
| R49I | 7.09 |
| V44L | 39 |
| V137C | 1.82 |
| K54I | -4.29 |
| H122P | -4.16 |
| D96W | -2.05 |
| R32E | 47.3 |
| E125P | 63.1 |
| R113C | 34.8 |
| Q31N | -10.9 |
| F124P | 3.39 |
| F47P | -1.9 |
| P36T | 51 |

Other studies, line by line
| Molecule | target | test | test system | setting | how to read | quantity | value |
| --- | --- | --- | --- | --- | --- | --- | --- |
| PhoQ, residues 284 288 289 292 302 303 TLMATV | PhoP, residues 12 14 15 18 19 NQAHL (Escherichia coli, UniProt P23836) | Sort-seq, refers to: YFP reporter | E. coli | PhoQ-PhoP variant library, together with: 10 µM Mg2+ | baseline: high Mg2+ state, higher = stronger signaling | fold induction | 21.1 |

Some of these lines once more (set 5):
| Strand | fitted relative affinity [z-score] |
| --- | --- |
| TCATGTCTCCCCCATCTTACTGTGCTA | 0.964 |
| TTAGGACTGCTTTTCGTTTAGTGCTAG | -0.018 |
| CTGTTTCCATCTCTCAAAAGGTGCTAG | 2.18 |
| TTAGAACTGGGGTCTGGATTAGTGCTA | -0.24 |
| TTAGGACTGGGTTTCCGTTAGTGCTAG | 0.358 |
| TTAGATATCAGTATCTATTAGTGCTAG | 0.849 |
| TCAATACTGATTTCCACACTGTGCTAG | 0.55 |
| TCATTTTCCTCTGTCATACTGTGCTAG | 1.37 |
| GACGGTTTCGGGTTTCGGGGCGTGCTA | 9.15 |
| TCATGCTTAGTATTTTTTACTGTGCTA | 0.296 |
| TCACCTCTGGGCTGTTTGACTGTGCTA | 0.0192 |
| GACGGTATTGGTCTCGGGACGTGCTAG | 1.84 |
